Measured values gathered from unrelated publications.
Each line is one published result; not all experiments were run side by side. Several values in a cell are separate wells, animals, samples, runs or records. ± marks the error that the study gave. ≈ marks a conversion by molar mass, not a printed value.
UniProt P35462, sequence (whole entry, looked up): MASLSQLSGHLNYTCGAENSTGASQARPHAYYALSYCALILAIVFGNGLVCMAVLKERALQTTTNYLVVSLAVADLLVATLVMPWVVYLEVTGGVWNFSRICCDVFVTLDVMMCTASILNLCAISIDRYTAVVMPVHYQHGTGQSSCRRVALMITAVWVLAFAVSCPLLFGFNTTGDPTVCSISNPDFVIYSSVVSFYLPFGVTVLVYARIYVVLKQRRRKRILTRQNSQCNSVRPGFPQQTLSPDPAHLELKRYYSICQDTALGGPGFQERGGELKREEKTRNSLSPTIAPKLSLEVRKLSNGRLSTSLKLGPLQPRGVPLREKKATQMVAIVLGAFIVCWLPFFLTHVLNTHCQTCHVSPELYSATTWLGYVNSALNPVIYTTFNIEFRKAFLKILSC

SMILES	target or system	test	test system	conditions	scale	endpoint	result
COc1cc(N2CCC3(CCN(C)CC3)CC2)ccc1Nc1ncc(Cl)c(Nc2ccccc2P(C)(C)=O)n1	–	population PK model	human	oral, base structural model	–	V2/F	303 L
O=C(N[C@@H](CSCc1ccc([N+](=O)[O-])cc1)C(=O)NO)c1ccccc1	–	–	ICR mice, male, heart, lungs, kidney, liver	oral, 200 mg/kg, 28 days, subacute toxicity	–	relative organ weight	no effect
C[C@H](CCC(=O)O[C@@H]1O[C@H](C(=O)O)[C@@H](O)[C@H](O)[C@H]1O)[C@H]1CC[C@H]2[C@@H]3[C@H](O)C[C@@H]4C[C@H](O)CC[C@]4(C)[C@H]3CC[C@]12C	–	–	human, plasma	endogenous control diurnal	relative to: daily mean concentration	relative peak deviation	54 ± 7.9%
CNC(=O)c1cc(Oc2ccc(NC(=O)Nc3cc(C(C)(C)C)nn3-c3ccc4ncccc4c3)c(F)c2)ccn1	–	refers to: worst grade 1	human	oral, dose not given, cycles 1 and 2, High AUC(0-4 h) subgroup	–	patients with visual abnormality AE	11%
Cc1ccc(CNS(=O)(=O)c2c(C)[nH]c(C)c2C(=O)N2CCCC2)cc1Cl	DRD3 (Homo sapiens, UniProt P35462)	Go activation, antagonist, BRET	–	together with: dopamine	–	IC50	> 100 µM
COc1ccc(-c2nnc(SCC(=O)Nc3c(F)cc(F)cc3Br)n2C)cc1	CDK2 (Homo sapiens, UniProt P24941)	binding	–	–	–	Kd	> 100 µM
NCCOCC(=O)N1CCC[C@H](C(=O)NCc2nc(-c3ccc(C(F)(F)F)cc3)cs2)C1	–	–	Sprague-Dawley rat, male, urine	intravenous, 1 mg/kg, 24 h	relative to: dose	urinary excretion	15%
CC(C)(C(=O)N1CCOc2c(C#N)cncc2C1)C(F)F	–	refers to: blood creatine phosphokinase increased	healthy humans, both sexes	oral, 10 mg single dose	–	subjects with TEAE	0%
CCn1cc(C(=O)N2CCOCC2)c(=O)c2cc(NC3Cc4ccccc4C3)cnc21	–	–	human, fasted	oral suspension, 50 mg single dose, arithmetic mean	–	AUC(0-last)	1400 ng·h/mL
COc1cc2c3c(n(CCCN4CCOCC4)c(=O)c2cc1OC)-c1cc2c(cc1C3=O)OCO2	–	–	beagle dog, female, plasma	oral, 860 mg/m^2, gelatin capsule	–	AUC(0-inf)	19.4 ng·h/mL and 17200 ng·h/mL
N#Cc1ccc2c(c1)[C@H]1CCCN(C(=O)c3ccc4[nH]cnc4c3)[C@H]1C2	–	–	human, female	40 mg, end of trial	–	DHEA-S level	6 µmol/L
COc1cc(Cl)c(C(=O)N[C@@H](CN[C@H]2CC[C@@H](N)CC2)Cc2ccc(C#N)cc2)cc1-c1ccc(CN[C@H](C)c2ccc(C)cc2)o1	–	–	mouse liver microsomes	1 µM, pH 7.4	–	blood clearance	1.2 L/h/kg
Cc1ccc(Sc2ccccc2N2CCNCC2)c(C)c1	–	–	healthy adult men	oral, 2.5 mg single dose, treatment-emergent adverse events	–	eczema incidence	0%
Cn1cnc2c(F)c(Nc3ccc(Br)cc3Cl)c(C(=O)NOCCO)cc21	–	population PK model	human, plasma	oral, first-order absorption model	relative to: fed over fasted	relative bioavailability	0.74
COc1cccc(OC)c1-c1cc(C(=O)NC2(C(=O)O)C3CC4CC(C3)CC2C4)nn1-c1ccc(C(=O)N(C)CCCN(C)CCCN(C)C(=O)CN2CCN(CC(=O)[O-])CCN(CC(=O)[O-])CCN(CC(=O)[O-])CC2)cc1C(C)C.[177Lu+3] (stereo not shown)	–	–	mouse HT-29 xenograft	24 h, biodistribution	relative to: tumour over spleen	tumour-to-spleen ratio	74.5
CC(C)=CC[C@@H](O)C1=CC(=O)c2c(O)ccc(O)c2C1=O	–	–	plasma	500 ng/mL, 3 d, -80 °C, storage stability	–	measured concentration	482 ± 9.19 ng/mL
Cc1cc(-c2nccc3c2ccn3CC(=O)Nc2ccc(-c3cnccn3)cn2)ccn1	–	–	healthy human volunteers	oral, 20 mg single dose, single ascending dose	–	nervous system TEAEs	0%
CCn1c(=O)c(-c2cc(NC(=O)Nc3ccccc3)c(F)cc2Br)cc2cnc(N)cc21	–	ultracentrifugation	human, hepatic impairment mild or matched healthy, plasma	oral, 50 mg single dose	–	unbound fraction at Cmax	0.462%
Cc1cccc(CNC(=O)c2cn(CCNC(=O)c3ccccc3S)c3cc4c(cc3c2=O)OC(F)(F)O4)n1	–	–	Sprague-Dawley rat, male, whole blood	intramuscular, 3 mg/kg of parent drug	–	half-life	376 min
C[C@@H]1[C@H](O)[C@@H](C)/C=C/C=C/C=C/C=C/C=C/C=C/C=C/[C@H](O[C@@H]2O[C@H](C)[C@@H](O)[C@H](N)[C@@H]2O)C[C@@H]2O[C@](O)(C[C@@H](O)C[C@@H](O)[C@H](O)CC[C@@H](O)C[C@@H](O)CC(=O)O[C@H]1C)C[C@H](O)[C@H]2C(=O)O	–	–	human blood	500 µg/mL, 24 h, DMSO solvent	–	hemolysis	17.7% and 19.3% and 16.7%
C[Si](C)(C)O[Si](C)(C)C	–	–	–	–	–	slope B, log KOA vs 1/T	1390
CCc1cc(C(=O)NC)c2nccc(N3CCc4c(cc(Cn5ccnc5)cc4-c4cn(C)nc4C(F)(F)F)C3=O)c2c1	–	refers to: TBIL	Sprague Dawley rat	oral, 50 mg/kg once daily, 7 days	relative to: vehicle	change in clinical chemistry or haematology parameter	6.7%

SMILES	target or system	test	test system	conditions	scale	endpoint	result
NC1(C(=O)N[C@@H](CCO)c2ccc(Cl)cc2)CCN(c2nc[nH]c3nccc2-3)CC1	–	–	human mCRPC patients	oral, twice daily, 4/7 days, grade 3/4, treatment-related, together with: enzalutamide 160 mg daily	–	blood creatinine increased incidence	0%
O=C(Cc1ccc2ccccc2c1)Nc1cc(C2CCC2)[nH]n1	–	–	mouse plasma	375 ng/mL, 40 days, -80 °C, long-term storage stability	–	measured mean concentration	374 ± 10 ng/mL
O=C(c1cccnc1-c1ccncc1)N1CCC(O)(Cc2ccccc2)CC1	–	–	healthy Japanese adults, plasma	oral, 300 mg twice daily, day 21	–	AUCtau/dose	6.73 ng·h/mL/mg
O=c1ccc2ccc(O)cc2o1	–	–	human	–	–	scaled intrinsic clearance	465 mL/min/kg
O=C1CC[C@H](N2Cc3cc(N4CCN(CC5CCN(c6ccc([C@@H]7c8ccc(O)cc8CC[C@@H]7c7ccccc7)cc6)CC5)CC4)ccc3C2=O)C(=O)N1	–	rapid equilibrium dialysis	SD rat blood	2.5 µM, 6 h	–	unbound fraction in blood	0.065
C=CC[C@@H]1/C=C(\C)C[C@H](C)C[C@H](OC)[C@H]2O[C@@](O)(C(=O)C(=O)N3CCCC[C@H]3C(=O)O[C@H](/C(C)=C/[C@@H]3CC[C@@H](O)[C@H](OC)C3)[C@H](C)[C@@H](O)CC1=O)[C@H](C)C[C@@H]2OC	–	–	rhesus monkey kidney transplant, blood	subcutaneous, 0.1 mg/kg	–	trough level	8 to 12 ng/mL
O=C(O)CCC(=O)O.[2H]C([2H])([2H])Oc1cc(C)c2[nH]ccc2c1CN1CC[C@@H](C2CC2)C[C@H]1c1ccc(C(=O)O)cc1	–	ECG	healthy Chinese subjects	oral, 200 mg once daily, multiple ascending dose	–	TEAE T wave abnormality	0%
NC(CO)(CO)CCc1ccc(Sc2cccc(OCc3ccccc3)c2)cc1Cl	–	–	human, supine	oral, 3 mg, 0 to 24 h, together with: cyclosporin 100 mg	–	pulse rate AUEC, median	1340 h×bpm
Cn1cc(-c2cn3nccc3c(-c3cnn([C@]4(CC#N)C[C@@H](C#N)C4)c3)n2)cn1	–	–	healthy humans fed, plasma	100 mg once daily, day 10, geometric mean	–	average concentration	81.3 ng/mL
CO[C@@H]1[C@H](O)[C@@H](CO)O[C@H]1n1c([N+](=O)[O-])nc2c(=O)[nH]c(N)nc21	–	depurination, RP-HPLC	citrate-phosphate buffer 0.5 mM	240 min, pH 5, 37 °C	–	nucleoside remaining fraction	0.853
COc1ncc(-c2nc3c(n2C(C)C)[C@H](c2ccc(Cl)cc2)N(c2cc(Cl)cn(C)c2=O)C3=O)c(OC)n1	–	–	human patients, plasma	oral, 15 mg, low-dose arm, cycle 2 day 1	–	median half-life	414 min
O=C(Nc1nc2cccc(-c3ccc(CN4CCS(=O)(=O)CC4)cc3)n2n1)C1CC1	–	refers to: general and administration-site disorders	rheumatoid arthritis patients	oral, 75 mg once daily, 4 weeks, any relatedness	–	treatment-emergent adverse events	4.5%
CC(C)[C@H](C(=O)Nc1ccc(C(=O)NO)cc1)c1ccccc1	–	–	whole blood	10.0 ng/mL, 0 h, 4 °C, stability on ice	–	measured concentration	10.1 ng/mL
Cc1cc(C)c(CNC(=O)c2cc(Cl)c3c(c2C)O[C@@](C)([C@H]2CC[C@H](N(C)C)CC2)O3)c(=O)[nH]1	–	–	relapsed/refractory NHL patients	oral, 200 mg once daily, onset after cycle 1 day 1	–	grade ≥3 Neutrophil count decreased	16.7%
CC(C)(C)c1ccc(O)c(CN(Cc2cc(C(C)(C)C)ccc2O)C2CCC(NC(N)=O)CC2)c1 (stereo not shown)	–	–	C57BL/6 mice, male, brain	intraperitoneal, 25 mg/kg, single dose	–	dose-normalised Cmax	64 ng/g per mg/kg
NCCONC(=O)[C@@H]1CC[C@@H]2CN1C(=O)N2OS(=O)(=O)O	–	–	healthy Chinese male subjects	intravenous, 1 g	–	number of serious TRAE events	0
CNCc1ccc(-c2[nH]c3cc(F)cc4c3c2CCNC4=O)cc1	–	–	human patients	oral, 600 mg twice daily, grade 2	–	diarrhoea incidence	0%
CNC(=O)c1ccc(-c2cnc3ncc(Cc4ccc5ncccc5c4)n3n2)cc1F	–	–	healthy human subjects	oral, dose not given, all grades, all causality, together with: itraconazole	relative to: subjects	diarrhoea incidence	11.1%
CC(Sc1nc2ccccc2[nH]1)C(=O)Nc1ccc(S(N)(=O)=O)cc1 (stereo not shown)	Cyclin-dependent kinase 2, with cyclin A (CDK2, Homo sapiens, UniProt P24941)	–	–	–	–	Kd	> 100 µM
CC(C)Oc1c(NC(=O)c2ccc(NC(=O)[C@H](CC(N)=O)NC(=O)c3cc(F)c(/N=N/c4c(F)cccc4F)c(F)c3)cc2)ccc(C(=O)N/N=C/c2ccc(C(=O)O)s2)c1O	–	absorbance	DMSO	30 °C, PSS to ground state relaxation	–	thermal half-life	5.7 h
O=C1COCCN1c1ccc(CO[C@@H]2COc3nc([N+](=O)[O-])cn3C2)cn1	–	–	aqueous buffer	pH 7.4	–	aqueous solubility	28.4 µg/mL (≈ 75.7 µM)

A few entries again:
SMILES	target or system	test	test system	conditions	scale	endpoint	result
O=C1COCCN1c1ccc(CO[C@@H]2COc3nc([N+](=O)[O-])cn3C2)cn1	–	–	aqueous buffer	pH 7.4	–	aqueous solubility	28.4 µg/mL (≈ 75.7 µM)
CCc1cc(C(=O)NC)c2nccc(N3CCc4c(cc(Cn5ccnc5)cc4-c4cn(C)nc4C(F)(F)F)C3=O)c2c1	–	refers to: TBIL	Sprague Dawley rat	oral, 50 mg/kg once daily, 7 days	relative to: vehicle	change in clinical chemistry or haematology parameter	6.7%
O=C(Cc1ccc2ccccc2c1)Nc1cc(C2CCC2)[nH]n1	–	–	mouse plasma	375 ng/mL, 40 days, -80 °C, long-term storage stability	–	measured mean concentration	374 ± 10 ng/mL
COc1cc2c3c(n(CCCN4CCOCC4)c(=O)c2cc1OC)-c1cc2c(cc1C3=O)OCO2	–	–	beagle dog, female, plasma	oral, 860 mg/m^2, gelatin capsule	–	AUC(0-inf)	19.4 ng·h/mL and 17200 ng·h/mL
C[Si](C)(C)O[Si](C)(C)C	–	–	–	–	–	slope B, log KOA vs 1/T	1390
CC(C)Oc1c(NC(=O)c2ccc(NC(=O)[C@H](CC(N)=O)NC(=O)c3cc(F)c(/N=N/c4c(F)cccc4F)c(F)c3)cc2)ccc(C(=O)N/N=C/c2ccc(C(=O)O)s2)c1O	–	absorbance	DMSO	30 °C, PSS to ground state relaxation	–	thermal half-life	5.7 h
